Measured values gathered from unrelated publications.
Each numbered part is a random draw from the data of one study; scales do not carry over between parts.

Sample 1
Target: Histone acetyltransferase KAT6A, winged helix 1, GST fusion (KAT6A, Homo sapiens, UniProt Q92794, residues 1-85)
Technique: protein binding microarray
Form: double-stranded DNA, one strand shown
Medium: in vitro
Concentration: not given
Setting: 8-mer, flanks averaged, mean of 2 arrays, mostly near background
Reference: not given
Direction: higher = stronger binding
Residues (chain): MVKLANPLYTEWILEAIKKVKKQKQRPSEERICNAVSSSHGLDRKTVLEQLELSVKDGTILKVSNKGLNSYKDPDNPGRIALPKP
Oligonucleotide	E-score
GCAAATTA	-0.134
AAAACACT	0.0388
AAGATGTC	-0.0301
AGCCCTAA	-0.00319
AAAGGAAA	-0.14
AGGAGGTA	-0.188
ACTCTCAG	-0.113
CGGACGTA	0.249
ATGCCCGA	-0.065
AACTCCCG	0.253
ATCGACTG	-0.201
CGGGCGCA	0.395
CGGTCAAG	0.179
CGTTTGTA	-0.0372
TATCCATA	-0.183
TAGAACAA	-0.177
AACGCCAA	-0.124
GAGGTTCC	0.0848
ATCAAAAG	-0.0103
CATGGCCC	0.0872
ACTACACG	-0.00723
AAAATGCA	-0.288
CGAATACA	-0.0917
CTATACAG	-0.163
CCAGAGAC	-0.112

Sample 2
Target: Prothrombin, mature alpha-thrombin (F2, Homo sapiens, UniProt P00734)
Technique: aptamer microarray, sandwich
Form: DNA with 2'F-ANA
Medium: in vitro
Concentration: 200 nM
Setting: whole 15-mer aptamer, many near background
With: Cy3 exosite-II aptamer, 400 nM
Direction: higher = stronger binding
Oligonucleotide: GGTTGGTGTGGTTGG
Modification	mean fluorescence intensity [a.u.]
2'F-ANA at 3 4 5 6 7 9 10 12 14	50.1
2'F-ANA at 4 6 7 8 10 12 15	105
2'F-ANA at 2 3 5 6 8 9 10 11 13 14	75.7
2'F-ANA at 2 5 6 8 9 11 13 14	47
2'F-ANA at 2 3 8 9 11 12 15	994
2'F-ANA at 2 4 6 7 8 10 11 12 14	108
2'F-ANA at 1 3 5 6 7 10 12 13 14 15	50
2'F-ANA at 3 5 8 10 11 13 15	66.4
2'F-ANA at 2 5 7 10 14 15	90.6
2'F-ANA at 1 2 5 7 11 12	88.9
2'F-ANA at 1 5 6 7 10 14 15	54.8
2'F-ANA at 2 4 7 8 9 12 13 15	424
2'F-ANA at 1 3 4 6 9 10 11 14	52.5
2'F-ANA at 1 2 3 4 6 7 8 10 12 15	194
2'F-ANA at 2 6 9 10 12 14	88
2'F-ANA at 4 5 7 8 10	47.8
2'F-ANA at 2 3 4 8 10 13	227
2'F-ANA at 1 4 5 6 7 8 11 12 13 14	62.6
2'F-ANA at 3 6 10 14	399
2'F-ANA at 1 2 3 4 7 9 12 13 15	280
2'F-ANA at 2 3 5 6 8 10 11 13 14	48.3
2'F-ANA at 2 5 6 7 9 11 14 15	48.8
2'F-ANA at 5 7 8 9 11 13 14 15	53.7
2'F-ANA at 3 4 5 10 11 12	67.6

Sample 3
Target: Sal-like protein 4, full length isoform A (SALL4, Homo sapiens, UniProt Q9UJQ4, residues 1-1053)
Chain of UniProt Q9UJQ4 (whole entry, looked up): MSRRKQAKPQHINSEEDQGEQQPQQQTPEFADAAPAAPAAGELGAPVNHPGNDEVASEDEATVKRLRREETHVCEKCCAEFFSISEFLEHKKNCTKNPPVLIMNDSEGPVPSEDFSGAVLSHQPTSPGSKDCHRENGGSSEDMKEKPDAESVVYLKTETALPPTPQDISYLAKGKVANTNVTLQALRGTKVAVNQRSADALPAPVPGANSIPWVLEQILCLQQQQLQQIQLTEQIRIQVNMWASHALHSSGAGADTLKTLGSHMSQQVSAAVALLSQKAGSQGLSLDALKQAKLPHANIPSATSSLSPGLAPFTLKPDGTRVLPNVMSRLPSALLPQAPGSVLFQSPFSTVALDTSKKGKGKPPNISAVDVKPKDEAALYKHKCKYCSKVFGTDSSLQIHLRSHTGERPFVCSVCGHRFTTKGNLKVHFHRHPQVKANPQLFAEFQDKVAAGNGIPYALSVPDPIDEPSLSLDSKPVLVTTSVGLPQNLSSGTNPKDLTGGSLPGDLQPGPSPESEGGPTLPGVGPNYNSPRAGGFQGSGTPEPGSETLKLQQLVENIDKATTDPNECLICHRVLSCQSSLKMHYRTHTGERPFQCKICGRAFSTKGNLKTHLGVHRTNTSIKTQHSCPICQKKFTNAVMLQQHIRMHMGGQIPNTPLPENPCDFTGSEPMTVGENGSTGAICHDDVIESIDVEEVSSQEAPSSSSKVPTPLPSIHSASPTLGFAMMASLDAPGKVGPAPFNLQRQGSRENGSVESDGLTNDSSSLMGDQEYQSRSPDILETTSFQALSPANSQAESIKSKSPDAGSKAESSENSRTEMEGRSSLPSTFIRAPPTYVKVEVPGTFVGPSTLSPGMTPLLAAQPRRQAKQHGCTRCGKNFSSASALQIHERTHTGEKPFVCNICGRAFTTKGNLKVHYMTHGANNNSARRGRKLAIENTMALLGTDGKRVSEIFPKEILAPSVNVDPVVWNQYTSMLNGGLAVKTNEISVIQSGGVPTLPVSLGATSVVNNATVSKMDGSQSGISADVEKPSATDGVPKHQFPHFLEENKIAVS
Technique: universal PBM
Form: double-stranded DNA, one strand shown
Medium: in vitro
Concentration: 600 nM
Setting: 8-mer, flanks averaged, mean of replicates
Direction: higher = stronger binding
Oligonucleotide	E-score
ATCCTCTC	-0.1
CGCACCTA	-0.104
TCTCGCAA	0.0244
AAATGCGA	0.205
ATAATGCC	0.13
GAGTGCCA	-0.184
ATTGGGTA	-0.00194
AACTAGTG	-0.0193
ACAGATTG	-0.0369
CTGGTAGA	-0.0344
GTATTCGA	-0.0464
CACGATAA	0.234
TACCAGTA	0.0982
CGGGCGAC	-0.4
CTTTATCC	-0.00344
AAGTCGCC	-0.311

Sample 4
Target: PABPC1L2, full length, GST fusion (mouse, UniProt A0ABA7IW68)
Technique: RNAcompete
Form: RNA
Medium: in vitro
Concentration: 20 nM
Setting: 7-mer, probes averaged, single round
Reference: mean of 7-mers
Direction: higher = stronger binding
Residues (chain): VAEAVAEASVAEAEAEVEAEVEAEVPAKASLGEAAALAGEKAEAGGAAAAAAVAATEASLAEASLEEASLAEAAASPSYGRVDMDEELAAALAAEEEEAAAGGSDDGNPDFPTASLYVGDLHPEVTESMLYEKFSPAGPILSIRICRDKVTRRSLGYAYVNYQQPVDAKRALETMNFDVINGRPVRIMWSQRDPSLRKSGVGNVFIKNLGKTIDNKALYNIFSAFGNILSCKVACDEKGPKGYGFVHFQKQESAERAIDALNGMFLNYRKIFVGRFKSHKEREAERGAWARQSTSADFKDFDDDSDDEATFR
Oligonucleotide	7-mer Z-score
CAAGCAC	-0.0554
CCUGACC	-0.336
ACCCGAA	0.0478
AGUACAC	-0.106
AGCGGCU	0.0116
CUCCAUC	-0.356
AAUGUAG	0.00436
GAGAGCU	-0.103
UGUGACA	0.0116
UGCACGU	-0.188
CGGUGAU	-0.0192
AUGAGUA	-0.11
GCACCCA	-0.108
AGGCAAG	0.316
GUUUCGA	-0.298
CUAUAAU	-0.126
AACAGGC	0.586
GUUCGAG	-0.277
AAAGCAA	1.33
UUUUCGA	-0.226
CUGUUUC	-0.436
CACAUUA	0.0116

Sample 5
Target: RNA binding protein fox-1 homolog 2, RRM domain, GST-SBP tag (RBFOX2, Homo sapiens, UniProt O43251-10, residues 100-194)
Technique: RNA Bind-n-Seq
Form: RNA
Medium: in vitro
Concentration: 365 nM
Setting: natural RNA segment, single round, ends assumed
Reference: no-protein control
Direction: higher = stronger binding
Shared flanks, not repeated: GGGAGUUCUACAGUCCGACGAUC … UGGAAUUCUCGGGUGCCAA
Residues (chain): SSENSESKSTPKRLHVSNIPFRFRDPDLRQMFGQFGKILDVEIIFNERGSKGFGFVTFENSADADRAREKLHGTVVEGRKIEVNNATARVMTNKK
Oligonucleotide	RBNS enrichment (R)
GAGUGUCCUUUAACUGUGGACCAAAGGCAACCCCUGCAGUGUUUAUAAAACAAUUUUAAGACCAUUCAGGCCACAUAAGAUGAGAAUGCAAUUUUGUAGGAUUACAAAAA	0.632
GGUUUGAAACUGUAUAGGAAGAACAGGUAAAGGCAGGUGGAGUGCACACAGAUCGCACCACAUGGCUUGUAAUGAUUUUCUGUGUCUGUCAUCGUCAGCGUGUCAUCUGG	0.731
AGGCAGCCUAGCCUAUGUCUGGCAGAUGAGGGCUGGCUGCCGUUUUCUGGGCUGAUGGGUGCCCUUUCCUGGCAGUCUCAGUCCAAAAGUGUUGACUGUGUCAUUAGUCC	0.261
AUUUAAUGUCUAUACAGUAAAAUUAUUCAAACUUCAAACCAGUAUUGAAAGCAGUUGGAAACCAGCUAAUAGUUUCUUAAUCUCAGAUUUCGAGAUGAAUGUAAACUGUA	0.385
CAGGGUUUCACUGUGUUGCCCAGGCUGGUCUCAAACUCCUGAGCUCAGGCAAUCUGCCCGCCUUGGCCUCCCAAAGUGCUAGGAUUACAGGUAUGAGCCACCAUGCCCGG	0.188
CAGCUCUCCAUGCUGAGCUGUGGCCAAGGGGAACAGGUGGGAUGUUGCUGGCCGCCUUCAGAAUCGGGGGGAGUUUAGUCUGAGACAUCCCUGCUCCCCCUUUUUUCAAG	0.507
UUCUGUAUCAAAAUGGACUGUUCAUAUCAGAGCUGAGAACUAAAGCACUUCGUUCAUUAUCAGAAAACUGGAGGAAUUUAGAGAGAGGAAAUCUACGAUUUCUAAUUACC	0.31
GUAAUGAGAAGUCUUACGUACAACAUAGCUGUGGUGGCUUAAUGGCUGCAUUAGAUAGGAUCCUCACAUCCCAUUCAGAACCAAAACUGAUACAGUGAAACAAUUAAGGU	0.378
GGAUGCGGCUUGGGACUCAGACCUCAUCAUAUUGAUGAGUAGAAAGAACGUUCCCCCGCCCUCCUCCGAUCGAAAUGGCACAUUGACACUUGUCACAGCUUCGUGGUGAC	0.255
ACACCAACAUCCAGAUGUCACAGCUCUCCAGAGCUAGUCAGAAGAGAAAUCAAAUUAGUGUUUAAACCCAUUUGCAUAUUGACUUGUCAGUACCUUUAACUCAAUUUAAU	0.474
GUCUCCCCGGCCUACUCAUCCUGAGUCACCCUAUCACCAUGGGAGGUGGAGCCUCAAACUAAAACCUUCUUUUAUGGAAAGAAGGCUGUGGCCAAAAGCCCCGUAUCAAA	0.268
AGAGGGAGCACUGCCUCACAAACUGUGAGACUGCGUUUUUUAUACUUGGAAGUGGUGAAUUAUUUUAUAUAAGGUCAUUUAAAUAUCUAUUUAAAAAAUAGGAAGCUGCU	0.587

Repeated from above (sample 1):
Oligonucleotide	E-score
CGGTCAAG	0.179
CGTTTGTA	-0.0372
AAAACACT	0.0388
ACTACACG	-0.00723
GAGGTTCC	0.0848
